Results of several laboratories.
Numbered parts are unrelated; each lists some results of a single study.
Sequence of UniProt P50750 (whole entry, looked up): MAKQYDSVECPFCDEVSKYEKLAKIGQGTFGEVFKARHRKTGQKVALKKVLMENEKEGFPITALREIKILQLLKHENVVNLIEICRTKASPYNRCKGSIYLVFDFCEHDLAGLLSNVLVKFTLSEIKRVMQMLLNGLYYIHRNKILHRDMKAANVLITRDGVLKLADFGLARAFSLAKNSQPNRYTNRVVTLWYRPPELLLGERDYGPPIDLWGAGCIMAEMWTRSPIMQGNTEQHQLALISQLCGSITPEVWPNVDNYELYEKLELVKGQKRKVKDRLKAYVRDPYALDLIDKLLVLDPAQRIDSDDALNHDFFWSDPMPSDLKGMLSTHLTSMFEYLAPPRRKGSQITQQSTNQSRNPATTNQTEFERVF
Sequence of UniProt Q9HAZ1 (whole entry, looked up): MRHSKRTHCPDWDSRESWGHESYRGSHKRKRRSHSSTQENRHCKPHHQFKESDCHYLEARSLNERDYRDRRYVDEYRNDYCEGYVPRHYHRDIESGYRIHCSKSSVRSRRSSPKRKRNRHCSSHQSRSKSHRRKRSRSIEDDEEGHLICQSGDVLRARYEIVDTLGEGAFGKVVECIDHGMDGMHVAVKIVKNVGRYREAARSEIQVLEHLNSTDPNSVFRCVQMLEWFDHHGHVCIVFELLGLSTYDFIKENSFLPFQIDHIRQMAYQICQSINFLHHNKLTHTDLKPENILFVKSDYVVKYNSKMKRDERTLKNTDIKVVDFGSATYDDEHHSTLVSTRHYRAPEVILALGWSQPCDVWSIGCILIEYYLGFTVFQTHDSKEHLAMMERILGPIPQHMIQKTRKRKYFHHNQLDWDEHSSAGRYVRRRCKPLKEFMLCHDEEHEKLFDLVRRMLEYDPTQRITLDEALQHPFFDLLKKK
Sequence of UniProt Q9H4B4 (whole entry, looked up): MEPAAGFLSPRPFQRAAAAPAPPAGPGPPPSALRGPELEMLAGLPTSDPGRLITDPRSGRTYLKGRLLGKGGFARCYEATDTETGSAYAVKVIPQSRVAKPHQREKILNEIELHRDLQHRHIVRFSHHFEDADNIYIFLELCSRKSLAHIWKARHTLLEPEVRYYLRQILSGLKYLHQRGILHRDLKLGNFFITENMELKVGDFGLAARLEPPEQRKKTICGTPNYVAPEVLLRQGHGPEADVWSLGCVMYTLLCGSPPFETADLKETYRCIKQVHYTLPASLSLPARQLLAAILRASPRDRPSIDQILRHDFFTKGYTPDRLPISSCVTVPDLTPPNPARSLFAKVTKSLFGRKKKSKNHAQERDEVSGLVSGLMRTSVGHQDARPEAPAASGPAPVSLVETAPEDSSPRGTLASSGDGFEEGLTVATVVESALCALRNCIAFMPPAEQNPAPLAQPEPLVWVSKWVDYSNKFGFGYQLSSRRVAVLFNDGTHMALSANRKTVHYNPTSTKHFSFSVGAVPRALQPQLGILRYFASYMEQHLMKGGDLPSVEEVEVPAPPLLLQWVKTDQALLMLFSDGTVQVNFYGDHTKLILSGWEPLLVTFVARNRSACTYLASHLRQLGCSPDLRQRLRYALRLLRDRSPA
Sequence of UniProt P35367 (whole entry, looked up): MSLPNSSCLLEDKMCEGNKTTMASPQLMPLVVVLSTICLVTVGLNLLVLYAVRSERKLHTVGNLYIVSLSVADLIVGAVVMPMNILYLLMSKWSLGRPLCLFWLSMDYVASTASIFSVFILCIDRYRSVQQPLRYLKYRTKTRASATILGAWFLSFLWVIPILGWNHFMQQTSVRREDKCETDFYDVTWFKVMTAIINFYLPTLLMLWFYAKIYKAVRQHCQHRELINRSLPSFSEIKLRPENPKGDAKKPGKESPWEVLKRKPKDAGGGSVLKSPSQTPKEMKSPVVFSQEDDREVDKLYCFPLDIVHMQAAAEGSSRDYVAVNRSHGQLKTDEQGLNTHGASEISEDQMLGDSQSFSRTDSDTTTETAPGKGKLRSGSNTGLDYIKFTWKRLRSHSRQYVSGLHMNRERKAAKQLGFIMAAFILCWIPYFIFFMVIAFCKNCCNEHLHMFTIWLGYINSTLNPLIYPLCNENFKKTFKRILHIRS
Sequence of UniProt P08581 (whole entry, looked up): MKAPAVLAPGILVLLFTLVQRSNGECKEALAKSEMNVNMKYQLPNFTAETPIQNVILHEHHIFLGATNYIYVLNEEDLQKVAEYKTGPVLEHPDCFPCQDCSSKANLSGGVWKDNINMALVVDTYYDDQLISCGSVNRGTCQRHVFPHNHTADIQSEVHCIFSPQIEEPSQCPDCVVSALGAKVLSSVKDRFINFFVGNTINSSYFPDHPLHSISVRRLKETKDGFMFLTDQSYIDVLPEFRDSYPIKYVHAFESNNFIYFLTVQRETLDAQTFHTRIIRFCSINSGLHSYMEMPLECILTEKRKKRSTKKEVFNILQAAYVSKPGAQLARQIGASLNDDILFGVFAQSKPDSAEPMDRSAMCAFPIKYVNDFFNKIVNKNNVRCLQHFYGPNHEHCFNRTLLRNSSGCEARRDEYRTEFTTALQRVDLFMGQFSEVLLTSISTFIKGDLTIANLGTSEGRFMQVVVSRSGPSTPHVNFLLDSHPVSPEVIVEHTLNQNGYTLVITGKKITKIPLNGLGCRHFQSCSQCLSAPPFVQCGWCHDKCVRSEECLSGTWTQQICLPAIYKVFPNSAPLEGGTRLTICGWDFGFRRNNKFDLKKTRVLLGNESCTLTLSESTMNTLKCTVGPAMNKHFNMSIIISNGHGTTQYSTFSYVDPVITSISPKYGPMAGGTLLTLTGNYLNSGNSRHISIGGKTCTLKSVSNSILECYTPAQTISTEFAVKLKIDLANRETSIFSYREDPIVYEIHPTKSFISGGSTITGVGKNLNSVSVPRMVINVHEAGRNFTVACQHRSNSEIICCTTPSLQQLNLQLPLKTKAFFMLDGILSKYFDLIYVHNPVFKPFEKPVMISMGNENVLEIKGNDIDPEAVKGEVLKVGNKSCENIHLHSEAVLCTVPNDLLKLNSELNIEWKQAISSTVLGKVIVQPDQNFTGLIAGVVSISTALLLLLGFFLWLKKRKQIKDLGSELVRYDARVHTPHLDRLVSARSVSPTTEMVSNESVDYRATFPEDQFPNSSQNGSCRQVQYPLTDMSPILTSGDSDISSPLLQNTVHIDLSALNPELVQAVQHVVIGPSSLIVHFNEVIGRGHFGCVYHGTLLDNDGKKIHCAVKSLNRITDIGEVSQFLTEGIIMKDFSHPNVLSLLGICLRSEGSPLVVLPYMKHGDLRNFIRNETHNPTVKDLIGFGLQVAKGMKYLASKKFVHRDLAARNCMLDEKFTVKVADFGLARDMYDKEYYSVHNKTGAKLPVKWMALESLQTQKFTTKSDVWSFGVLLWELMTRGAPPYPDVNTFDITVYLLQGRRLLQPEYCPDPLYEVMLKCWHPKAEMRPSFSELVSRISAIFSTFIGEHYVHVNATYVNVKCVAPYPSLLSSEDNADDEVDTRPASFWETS
Sequence of UniProt Q5BJF2 (whole entry, looked up): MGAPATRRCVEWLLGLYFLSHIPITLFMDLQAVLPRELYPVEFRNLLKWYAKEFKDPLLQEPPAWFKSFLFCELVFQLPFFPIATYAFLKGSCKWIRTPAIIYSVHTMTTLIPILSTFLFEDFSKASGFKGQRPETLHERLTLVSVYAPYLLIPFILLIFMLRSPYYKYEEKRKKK
Sequence of UniProt P51956 (whole entry, looked up): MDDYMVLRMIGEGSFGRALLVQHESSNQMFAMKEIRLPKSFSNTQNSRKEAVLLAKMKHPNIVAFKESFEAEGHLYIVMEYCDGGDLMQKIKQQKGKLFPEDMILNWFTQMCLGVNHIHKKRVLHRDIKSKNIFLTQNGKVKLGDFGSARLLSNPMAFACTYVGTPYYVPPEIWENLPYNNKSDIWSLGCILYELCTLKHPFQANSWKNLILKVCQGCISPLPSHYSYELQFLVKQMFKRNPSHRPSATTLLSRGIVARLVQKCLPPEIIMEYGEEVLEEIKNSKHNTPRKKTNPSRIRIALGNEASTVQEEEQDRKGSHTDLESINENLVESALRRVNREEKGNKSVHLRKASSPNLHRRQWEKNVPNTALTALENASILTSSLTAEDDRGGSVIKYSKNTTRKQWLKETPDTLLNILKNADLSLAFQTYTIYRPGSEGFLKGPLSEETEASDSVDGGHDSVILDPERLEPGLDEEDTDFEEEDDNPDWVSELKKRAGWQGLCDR
Sequence of UniProt Q02750 (whole entry, looked up): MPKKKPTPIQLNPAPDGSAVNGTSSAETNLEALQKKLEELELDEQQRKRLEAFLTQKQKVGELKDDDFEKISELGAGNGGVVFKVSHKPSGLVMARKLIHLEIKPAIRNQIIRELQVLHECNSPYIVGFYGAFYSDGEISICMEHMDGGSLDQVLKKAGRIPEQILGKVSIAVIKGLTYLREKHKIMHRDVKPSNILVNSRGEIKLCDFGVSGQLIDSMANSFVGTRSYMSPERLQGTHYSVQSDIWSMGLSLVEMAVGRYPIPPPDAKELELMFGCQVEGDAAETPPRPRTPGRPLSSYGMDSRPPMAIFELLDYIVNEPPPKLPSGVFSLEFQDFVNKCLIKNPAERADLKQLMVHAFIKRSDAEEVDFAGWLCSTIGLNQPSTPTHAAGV

Block 1
Structure (SMILES): c1ccc(N2CCN(Cc3nc4ccccc4[nH]3)CC2)nc1
Effect on: binding
Technique: radioligand binding
Quantity: Ki
Histamine H1 receptor (HRH1, Homo sapiens, UniProt P35367): 6.71 µM
Sigma intracellular receptor 2 (TMEM97, Homo sapiens, UniProt Q5BJF2): 6.22 µM
D(4) dopamine receptor (DRD4, Homo sapiens, UniProt P21917): 0.319 µM

Block 2
SMILES: O=C1Nc2ccc(Br)cc2/C1=C/c1cc2c([nH]1)CCCC2
Effect on: enzyme activity
Action: inhibitor
Concentration: 0.5 µM
Baseline: control
Quantity: remaining activity
Cyclin-dependent kinase 1, with cyclin A (CDK1, Homo sapiens, UniProt P06493): 96.3%
Serine/threonine-protein kinase PAK 3 (PAK3, Homo sapiens, UniProt O75914): 96.4%
Tyrosine-protein kinase TXK (TXK, Homo sapiens, UniProt P42681): 97.3%
Dual specificity protein kinase CLK4 (CLK4, Homo sapiens, UniProt Q9HAZ1): 84.5%
Dual specificity mitogen-activated protein kinase kinase 1 (MAP2K1, Homo sapiens, UniProt Q02750): 84.8%
Serine/threonine-protein kinase PLK3 (PLK3, Homo sapiens, UniProt Q9H4B4): 97.8%
G protein-coupled receptor kinase 4 (GRK4, Homo sapiens, UniProt P32298): 101%
Serine/threonine-protein kinase Nek3 (NEK3, Homo sapiens, UniProt P51956): 86.7%
Mitogen-activated protein kinase 1 (MAPK1, Homo sapiens, UniProt P28482): 103%
Hepatocyte growth factor receptor (MET, Homo sapiens, UniProt P08581): 81.6%
Ribosomal protein S6 kinase alpha-4 (RPS6KA4, Homo sapiens, UniProt O75676): 94.2%
Cyclin-dependent kinase 9, with cyclin K (CDK9, Homo sapiens, UniProt P50750): 96.7%
Discoidin domain-containing receptor 2 (DDR2, Homo sapiens, UniProt Q16832): 101%
Calcium/calmodulin-dependent protein kinase type 1B (PNCK, Homo sapiens, UniProt Q6P2M8): 98.6%

Block 3
Target: Beta-1 adrenergic receptor (ADRB1, Homo sapiens, UniProt P08588)
Sequence of UniProt P08588 (whole entry, looked up): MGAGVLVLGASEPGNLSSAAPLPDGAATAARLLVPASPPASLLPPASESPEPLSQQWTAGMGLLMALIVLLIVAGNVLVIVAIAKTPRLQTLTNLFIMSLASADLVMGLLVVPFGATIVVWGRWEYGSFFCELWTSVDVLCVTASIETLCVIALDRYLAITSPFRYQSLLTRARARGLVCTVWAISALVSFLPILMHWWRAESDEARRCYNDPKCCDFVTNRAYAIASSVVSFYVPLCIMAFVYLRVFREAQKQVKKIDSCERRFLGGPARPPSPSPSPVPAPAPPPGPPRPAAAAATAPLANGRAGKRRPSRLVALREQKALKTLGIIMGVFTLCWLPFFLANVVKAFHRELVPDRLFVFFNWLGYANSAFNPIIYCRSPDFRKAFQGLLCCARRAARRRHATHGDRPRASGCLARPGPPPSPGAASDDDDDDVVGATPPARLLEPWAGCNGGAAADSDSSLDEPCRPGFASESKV
Action: antagonist
Quantity: IC50
CC#CCn1cc2c3c(cccc31)[C@H](CC(C)C)N[C@H](C(=O)NCc1ccccc1)C2: ≥ 100 µM
Cn1nccc1-c1ncc2c(n1)OCCN(c1cccc(C(F)(F)F)c1)C2=O: ≥ 100 µM
CC(CCc1ccc(O)cc1)NCCc1ccc(O)c(O)c1 (stereo not drawn): ≥ 100 µM
CC(C)(C)NC[C@H](O)COc1ccccc1C1CCCC1: ≥ 100 µM
FC(F)(F)c1nnc2ccc(N3CCCN(c4cnc5ccccc5n4)CC3)nn12: ≥ 100 µM
CCOc1ccc(-c2cc3c(=O)n(CC(O)c4ccc(C(C)C)cc4)ccn3n2)cc1 (stereo not drawn): ≥ 100 µM
O=C(Nc1ccccc1C(=O)N1CCOCC1)c1ccc2ccccc2n1: ≥ 100 µM
Cc1noc2c(-c3cccnc3Nc3ccncc3)cc(-c3ccccc3)nc12: ≥ 100 µM
Cc1cc(NCCc2cnccn2)nc(-c2ccccc2O)n1: 11.2 µM
OC(c1ccc2c(c1)CCO2)c1nc(Nc2ccccc2)n[nH]1 (stereo not drawn): ≥ 100 µM
CC[C@H](NC(C)C)[C@H](O)c1ccc(O)c2[nH]c(=O)ccc12 (racemic): ≥ 100 µM
Cc1ccccc1Oc1cccc2c(=O)cc(N3CCOCC3)[nH]c12: ≥ 100 µM
COc1ccc2c(Cn3nnc(-c4ccc(Br)cc4)n3)cc(=O)oc2c1: ≥ 100 µM
CCN(CC)c1ccc2c(c1)OC(=O)/C(=C\Nc1ccc(CC(=O)O)c(-c3c4c(nc5ccccc35)CCC(C(=O)NN)C4)c1)C2=O (stereo not drawn): ≥ 100 µM
O=C(Nc1cccc(-c2ccc(N3CCOCC3)nn2)c1)Nc1ccccc1Cl: ≥ 100 µM
CCOc1ccccc1C(=O)N1CCc2cc(OC)c(OC)cc2C1COc1ccc2c(C)cc(=O)oc2c1 (stereo not drawn): ≥ 100 µM
O=C(O)COc1ccc(-c2nccc3c2C(=O)N(Cc2c[nH]c4ccccc24)CC(COc2cccc(N4CCOCC4)c2)O3)cc1 (stereo not drawn): ≥ 100 µM

Block 4
Target: Bromodomain-containing protein 4, BD1 (BRD4, Homo sapiens, UniProt O60885)
Effect on: acetyl-histone H4 peptide binding
Technique: AlphaScreen displacement
Concentration: 50 µM
Quantity: inhibition
O=C1Nc2ccccc2C1=Cc1c(Cl)[nH]c2ccccc12: 62.9%
COc1ccc(N(C)C(=S)Nc2ccc3nc[nH]c(=O)c3c2)cc1: 14.1%
O=C(CSc1ccc2nnc(-c3ccc(Cl)cc3)n2n1)Nc1cccc(F)c1: 9.2%
CCN(CC)Cc1c(-c2ccc(OC)cc2)[nH]c2ncccc12: 10.8%
O=C(CSc1ccc2nnc(-c3cccc(F)c3)n2n1)NCC1CCCO1 (stereo not drawn): 9.9%
O=C(Nc1ccc(N2CCOCC2)cc1)Nc1ccc(Cl)c(Cl)c1: 38.4%
Ic1cccc(CSc2nnc(-c3ccncc3)o2)c1: 2.25%
NC(=O)c1ccc(-c2nc(-c3ccc4c(c3)OCCO4)c(-c3ccccn3)[nH]2)cc1: 52.4%
CCCN(Cc1ccccc1)C(=S)Nc1ccc2nc[nH]c(=O)c2c1: 8.45%
O=C(O)CCSc1nnc2c(n1)[nH]c1ccccc12: -3.15%
CCOC(=O)C(CC)Sc1ccc2nnc(-c3cccc(F)c3)n2n1 (stereo not drawn): 13.9%

A few entries again (block 4):
Ic1cccc(CSc2nnc(-c3ccncc3)o2)c1: 2.25%
NC(=O)c1ccc(-c2nc(-c3ccc4c(c3)OCCO4)c(-c3ccccn3)[nH]2)cc1: 52.4%
CCCN(Cc1ccccc1)C(=S)Nc1ccc2nc[nH]c(=O)c2c1: 8.45%
O=C(O)CCSc1nnc2c(n1)[nH]c1ccccc12: -3.15%
CCOC(=O)C(CC)Sc1ccc2nnc(-c3cccc(F)c3)n2n1 (stereo not drawn): 13.9%
